Published values gathered from unrelated publications.
Chain of UniProt Q9H0K1 (whole entry, looked up): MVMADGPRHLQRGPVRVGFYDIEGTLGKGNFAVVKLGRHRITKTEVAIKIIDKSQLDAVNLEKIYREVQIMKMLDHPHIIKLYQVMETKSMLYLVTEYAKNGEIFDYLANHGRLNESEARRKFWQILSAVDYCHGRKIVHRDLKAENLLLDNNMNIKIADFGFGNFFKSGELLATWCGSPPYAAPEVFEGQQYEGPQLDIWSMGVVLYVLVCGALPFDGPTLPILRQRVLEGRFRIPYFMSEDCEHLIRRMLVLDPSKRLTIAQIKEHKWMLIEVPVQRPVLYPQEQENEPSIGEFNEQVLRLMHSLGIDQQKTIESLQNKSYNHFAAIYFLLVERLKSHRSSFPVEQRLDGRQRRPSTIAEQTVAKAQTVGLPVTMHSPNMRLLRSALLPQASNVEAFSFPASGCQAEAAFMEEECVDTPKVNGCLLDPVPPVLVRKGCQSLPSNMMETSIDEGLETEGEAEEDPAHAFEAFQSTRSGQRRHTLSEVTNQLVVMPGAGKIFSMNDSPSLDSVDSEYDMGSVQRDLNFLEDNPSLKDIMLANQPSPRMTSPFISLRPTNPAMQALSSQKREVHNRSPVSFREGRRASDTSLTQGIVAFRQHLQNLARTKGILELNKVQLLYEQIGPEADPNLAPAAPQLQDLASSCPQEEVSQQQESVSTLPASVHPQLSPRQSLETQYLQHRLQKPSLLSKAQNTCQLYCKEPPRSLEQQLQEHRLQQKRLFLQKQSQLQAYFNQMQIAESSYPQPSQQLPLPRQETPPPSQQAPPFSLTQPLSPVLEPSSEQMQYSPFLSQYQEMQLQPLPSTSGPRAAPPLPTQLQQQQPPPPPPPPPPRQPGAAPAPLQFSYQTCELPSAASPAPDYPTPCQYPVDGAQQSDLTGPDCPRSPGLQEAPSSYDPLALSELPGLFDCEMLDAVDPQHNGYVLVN
Chain of UniProt Q9NQU5 (whole entry, looked up): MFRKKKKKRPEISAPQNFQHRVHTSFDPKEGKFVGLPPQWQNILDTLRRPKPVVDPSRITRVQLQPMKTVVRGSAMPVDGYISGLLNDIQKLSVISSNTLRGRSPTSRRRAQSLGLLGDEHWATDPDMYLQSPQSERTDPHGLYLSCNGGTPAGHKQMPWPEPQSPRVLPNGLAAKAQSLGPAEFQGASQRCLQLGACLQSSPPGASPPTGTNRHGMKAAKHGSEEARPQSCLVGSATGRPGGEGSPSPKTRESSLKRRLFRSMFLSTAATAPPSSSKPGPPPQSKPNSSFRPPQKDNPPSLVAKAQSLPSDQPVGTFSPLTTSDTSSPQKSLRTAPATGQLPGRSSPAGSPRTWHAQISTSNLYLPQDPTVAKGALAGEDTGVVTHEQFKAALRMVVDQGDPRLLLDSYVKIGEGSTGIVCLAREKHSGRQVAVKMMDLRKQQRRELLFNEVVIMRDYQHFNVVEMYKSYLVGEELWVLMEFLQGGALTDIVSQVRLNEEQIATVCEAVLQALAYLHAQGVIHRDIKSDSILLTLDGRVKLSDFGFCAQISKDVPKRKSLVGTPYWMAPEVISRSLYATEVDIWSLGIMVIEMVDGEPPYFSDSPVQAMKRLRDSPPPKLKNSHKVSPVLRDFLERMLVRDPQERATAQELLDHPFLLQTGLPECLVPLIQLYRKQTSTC
Chain of UniProt Q9H422 (whole entry, looked up): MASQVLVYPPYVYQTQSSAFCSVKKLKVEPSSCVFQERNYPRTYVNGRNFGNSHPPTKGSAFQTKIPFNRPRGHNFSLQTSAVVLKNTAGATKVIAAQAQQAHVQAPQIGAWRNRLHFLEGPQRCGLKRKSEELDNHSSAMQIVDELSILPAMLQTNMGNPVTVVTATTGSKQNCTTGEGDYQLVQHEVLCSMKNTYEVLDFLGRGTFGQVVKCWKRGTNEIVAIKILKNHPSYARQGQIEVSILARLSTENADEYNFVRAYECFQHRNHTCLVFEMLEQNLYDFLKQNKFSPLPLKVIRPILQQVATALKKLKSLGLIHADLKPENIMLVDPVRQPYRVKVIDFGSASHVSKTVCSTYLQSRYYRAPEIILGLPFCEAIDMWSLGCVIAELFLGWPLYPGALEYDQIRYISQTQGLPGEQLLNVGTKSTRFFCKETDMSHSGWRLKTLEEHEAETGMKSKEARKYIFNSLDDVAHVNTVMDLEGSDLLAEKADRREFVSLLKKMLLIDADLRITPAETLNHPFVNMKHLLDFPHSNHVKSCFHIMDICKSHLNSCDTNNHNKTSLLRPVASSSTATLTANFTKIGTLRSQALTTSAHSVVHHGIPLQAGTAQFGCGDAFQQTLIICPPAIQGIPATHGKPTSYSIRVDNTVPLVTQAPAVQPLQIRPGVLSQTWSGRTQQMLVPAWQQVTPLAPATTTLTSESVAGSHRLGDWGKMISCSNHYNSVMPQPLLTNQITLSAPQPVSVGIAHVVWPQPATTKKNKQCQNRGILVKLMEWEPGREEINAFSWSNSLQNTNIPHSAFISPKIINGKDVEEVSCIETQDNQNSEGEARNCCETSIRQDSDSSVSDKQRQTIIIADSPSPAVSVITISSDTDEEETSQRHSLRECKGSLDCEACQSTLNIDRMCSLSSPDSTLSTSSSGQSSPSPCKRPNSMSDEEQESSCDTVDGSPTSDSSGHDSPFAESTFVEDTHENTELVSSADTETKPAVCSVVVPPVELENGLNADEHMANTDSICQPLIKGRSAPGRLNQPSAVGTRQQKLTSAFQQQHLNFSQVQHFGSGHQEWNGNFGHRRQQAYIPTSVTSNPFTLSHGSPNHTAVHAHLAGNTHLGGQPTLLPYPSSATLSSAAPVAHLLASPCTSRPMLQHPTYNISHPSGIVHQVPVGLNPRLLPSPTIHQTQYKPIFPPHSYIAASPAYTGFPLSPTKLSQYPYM
Chain of UniProt Q9NWZ3 (whole entry, looked up): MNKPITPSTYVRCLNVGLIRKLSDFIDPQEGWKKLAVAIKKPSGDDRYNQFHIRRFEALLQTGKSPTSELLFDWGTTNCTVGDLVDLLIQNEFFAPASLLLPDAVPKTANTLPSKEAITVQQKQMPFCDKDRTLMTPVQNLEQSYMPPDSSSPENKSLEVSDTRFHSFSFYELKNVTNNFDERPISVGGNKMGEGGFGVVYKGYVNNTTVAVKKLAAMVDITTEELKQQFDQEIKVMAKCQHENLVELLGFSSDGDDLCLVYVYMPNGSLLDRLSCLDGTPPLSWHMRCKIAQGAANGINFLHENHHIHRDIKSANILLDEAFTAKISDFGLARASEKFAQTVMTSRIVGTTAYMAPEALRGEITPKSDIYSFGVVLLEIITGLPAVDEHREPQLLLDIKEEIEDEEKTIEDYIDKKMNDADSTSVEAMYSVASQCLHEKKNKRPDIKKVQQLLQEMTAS

SMILES = CCN(Cc1cccc(F)c1)c1ccc(CO)c(Cl)c1; target or system = RBE; test = cell growth or viability, ATP luminescence; setting = 46 µM, 72 h; quantity = inhibition; result = 54%
SMILES = CNc1ncc2c(/C=C/C(=O)N3CCC(OC)CC3)nn(Cc3cccc(C(F)(F)F)c3)c2n1; target or system = IRAK4 (Homo sapiens, UniProt Q9NWZ3); test = enzyme activity, inhibitor, radiometric; setting = 1 µM; quantity = remaining activity; result = 97%
SMILES = Cc1cc(=O)oc2ccc(-c3cc(-c4ccc(Br)cc4)nc(N)n3)c(O)c12; target or system = KB; test = cell growth or viability, MTT; setting = 32 µg/mL, 72 h; quantity = inhibition; result = 13%
SMILES = OCc1ccc(-c2nn(-c3ccccc3)c3ccccc23)o1; target or system = RBE; test = cell growth or viability, ATP luminescence; setting = 46 µM, 72 h; quantity = inhibition; result = 78%
SMILES = Cc1cc(=O)oc2ccc(-c3cc(-c4ccccc4)nc(N)n3)c(O)c12; target or system = KB; test = cell growth or viability, MTT; setting = 2 µg/mL, 72 h; quantity = inhibition; result = 0%
SMILES = C[C@@H]1CC[C@@H]([C@@](O)(CNCc2ccccc2)COCc2ccccc2)[C@H](OCc2ccccc2)C1; target or system = HeLa; test = cell growth or viability, MTT; setting = 10 µM, 72 h; quantity = inhibition; result = 97.4%
SMILES = COc1cc(-c2cncc3c2CN(C)Cc2cc(N4CCNCC4)ccc2-3)cc(OC)c1OC; target or system = PAK6 (Homo sapiens, UniProt Q9NQU5); test = enzyme activity, inhibitor; setting = 1 µM; quantity = remaining activity; result = 111%
SMILES = CCCCC(=O)Nc1ccc(-c2ccc3ncn(CCC)c(=O)c3c2)cn1; target or system = SIK2 (Homo sapiens, UniProt Q9H0K1); test = binding, competition with immobilised ligand; setting = 0.5 µM; quantity = remaining binding; result = 100%
SMILES = COc1ccccc1Cn1nc(-c2ccc(CO)o2)c2ccccc21; target or system = RBE; test = cell growth or viability, ATP luminescence; setting = 46 µM, 72 h; quantity = inhibition; result = 74%
SMILES = Cc1cc([C@@H](C)Nc2ccccc2C(=O)O)c2nc(N3CCC(F)(F)CC3)c(C#N)c(=O)n2c1; target or system = PIM3 (Homo sapiens, UniProt Q86V86); test = binding, competition with immobilised ligand; setting = 1 µM; quantity = remaining binding; result = 100%
SMILES = CCC(=CCc1c(O)cc2c(c1O)C(=O)C[C@@H](c1ccccc1O)O2)CC; target or system = HeLa; test = cell growth or viability, MTT; setting = 60 µM, 48 h; quantity = inhibition; result = 47.7%
SMILES = CCN(Cc1c(F)cccc1C(F)(F)F)c1ccc(CO)c(Cl)c1; target or system = RBE; test = cell growth or viability, ATP luminescence; setting = 46 µM, 72 h; quantity = inhibition; result = 57%
SMILES = C=CC(=O)N1CCC(COCC(=O)N2CCN(c3nc(-c4cnc(N)nc4C(F)F)nc(N4CCOC[C@@H]4C)n3)CC2)CC1; target or system = HIPK3 (Homo sapiens, UniProt Q9H422); test = binding, competition with immobilised ligand; setting = 1 µM; quantity = remaining binding; result = 100%
SMILES = COc1ccc(CNC[C@@](C)(O)[C@@H]2CC[C@@H](C)C[C@H]2OCc2ccccc2)cc1; target or system = A2780; test = cell growth or viability, MTT; setting = 30 µM, 72 h; quantity = inhibition; result = 93.9%
SMILES = Cc1cc(Nc2ncc(Cl)c(Nc3ccccc3S(=O)(=O)C(C)C)n2)c(OC(C)C)cc1C1CCNCC1; target or system = NCI-H3122; test = cell growth or viability, MTT; setting = 0.016 µg/mL, 72 h; quantity = inhibition; result = 23.3%
SMILES = CCC(=CCc1c(O)cc2c(c1O)C(=O)C[C@@H](c1ccc(O)cc1)O2)CC; target or system = HeLa; test = cell growth or viability, MTT; setting = 3.125 µM, 48 h; quantity = inhibition; result = -2.7%
SMILES = COc1ccccc1CNC[C@@](C)(O)[C@@H]1CC[C@@H](C)C[C@H]1OCc1ccccc1; target or system = A2780; test = cell growth or viability, MTT; setting = 30 µM, 72 h; quantity = inhibition; result = 99.9%
SMILES = O=S(=O)(Nc1nccs1)c1ccc(N=NN(O)c2ccccc2)cc1; test = ABTS scavenging; setting = 240 µg/mL; quantity = inhibition; result = 89.1%
SMILES = C[C@@H]1CC[C@@H]([C@@](O)(CNCc2cccc3ccccc23)COCc2ccccc2)[C@H](OCc2ccccc2)C1; target or system = HeLa; test = cell growth or viability, MTT; setting = 10 µM, 72 h; quantity = inhibition; result = 81.4%
SMILES = CCN(O)N=Nc1ccc(S(=O)(=O)Nc2nccs2)cc1; test = ABTS scavenging; setting = 240 µg/mL; quantity = inhibition; result = 50.2%
SMILES = C[C@@H]1CC[C@@H]([C@](C)(O)CNCc2ccccc2)[C@H](OCc2ccccc2)C1; target or system = HeLa; test = cell growth or viability, MTT; setting = 10 µM, 72 h; quantity = inhibition; result = 97.7%
SMILES = CCN(Cc1ccncc1)c1ccc(CO)c(Cl)c1; target or system = RBE; test = cell growth or viability, ATP luminescence; setting = 46 µM, 72 h; quantity = inhibition; result = 83%
